Measurements collected from several papers.
A part holds a random share of what one study measured. Changes are numbered by the printed parent chain.

Set 1
Target: UBE2M UBC core domain (UniProt P61081)
Method: yeast two-hybrid
Medium: yeast
Setting: mostly zero background
Baseline: not given
Reading: higher = stronger interaction
B1: RFWD3 RING domain (UniProt Q6PCD5); chain ASMDEEEGDTCTICLEQWTNAGDHRLSALRCGHLFGYRCISTWLKGQVRKCPQCNKKARHSDIVV
B2: DTX2 RING domain (UniProt Q86UW9); chain EELKVPPDEDCIICMEKLSTASGYSDVTDSKAIGSLAVGHLTKCSHAFHLLCLLAMYCNGNKDGSLQCPSCKTIYGEKTGTQ
B3: SH3RF1 RING domain (UniProt Q7Z6J0); chain DESALLDLLECPVCLERLDASAKVLPCQHTFCKRCLLGIVGSRNELRCPECRTLVGSGVEEL
B4: ZMIZ2 RING domain (UniProt Q8NF64); chain GTIPGTPGPNGEDGVEQTAIKVSLKCPITFRRIQLPARGHDCRHIQCFDLESYLQLNCERGTWRCPVCNKTALLEGLEVDQYMLGILIYIQNSDYEEITIDPTCSWK
Construct (chain): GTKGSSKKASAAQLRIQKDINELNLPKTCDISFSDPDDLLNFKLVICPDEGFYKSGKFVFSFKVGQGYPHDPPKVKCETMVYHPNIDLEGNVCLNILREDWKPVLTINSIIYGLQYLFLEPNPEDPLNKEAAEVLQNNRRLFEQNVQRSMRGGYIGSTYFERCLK
Sequence | lacZ reporter activity
YQNEVDDDLVCHICLQPLLQPLDTPCGHTFCYKCLRNFLQEKDFCPLDRKRLHFKLCKK (LNX2 RING domain (UniProt Q8N448)) | 0
B1 (RFWD3 RING domain) | 0
B2 (DTX2 RING domain) | 0
B3 (SH3RF1 RING domain) | 0
GSRLQEINDVCAICYHEFTTSARITPCNHYFHALCLRKWLYIQDTCPMCHQKVYIEDDIK (RNF139 RING domain (UniProt Q8WU17)) | 0
B4 (ZMIZ2 RING domain) | 0
FDGDVDPDLKCALCHKVLEDPLTTPCGHVFCAGCVLPWVVQEGSCPARCRGRLSAKELN (PDZRN3 RING domain (UniProt Q9UPQ7)) | 0
PEDRESLKSACVVCLSSFKSCVFLECGHVCSCTECYRALPEPKKCPICRQAITRVIPLY (MUL1 RING domain (UniProt Q969V5)) | 0

Set 2
Target: Sal-like protein 4, full length isoform A (SALL4, Homo sapiens, UniProt Q9UJQ4, residues 1-1053)
UniProt Q9UJQ4, sequence (whole entry, looked up): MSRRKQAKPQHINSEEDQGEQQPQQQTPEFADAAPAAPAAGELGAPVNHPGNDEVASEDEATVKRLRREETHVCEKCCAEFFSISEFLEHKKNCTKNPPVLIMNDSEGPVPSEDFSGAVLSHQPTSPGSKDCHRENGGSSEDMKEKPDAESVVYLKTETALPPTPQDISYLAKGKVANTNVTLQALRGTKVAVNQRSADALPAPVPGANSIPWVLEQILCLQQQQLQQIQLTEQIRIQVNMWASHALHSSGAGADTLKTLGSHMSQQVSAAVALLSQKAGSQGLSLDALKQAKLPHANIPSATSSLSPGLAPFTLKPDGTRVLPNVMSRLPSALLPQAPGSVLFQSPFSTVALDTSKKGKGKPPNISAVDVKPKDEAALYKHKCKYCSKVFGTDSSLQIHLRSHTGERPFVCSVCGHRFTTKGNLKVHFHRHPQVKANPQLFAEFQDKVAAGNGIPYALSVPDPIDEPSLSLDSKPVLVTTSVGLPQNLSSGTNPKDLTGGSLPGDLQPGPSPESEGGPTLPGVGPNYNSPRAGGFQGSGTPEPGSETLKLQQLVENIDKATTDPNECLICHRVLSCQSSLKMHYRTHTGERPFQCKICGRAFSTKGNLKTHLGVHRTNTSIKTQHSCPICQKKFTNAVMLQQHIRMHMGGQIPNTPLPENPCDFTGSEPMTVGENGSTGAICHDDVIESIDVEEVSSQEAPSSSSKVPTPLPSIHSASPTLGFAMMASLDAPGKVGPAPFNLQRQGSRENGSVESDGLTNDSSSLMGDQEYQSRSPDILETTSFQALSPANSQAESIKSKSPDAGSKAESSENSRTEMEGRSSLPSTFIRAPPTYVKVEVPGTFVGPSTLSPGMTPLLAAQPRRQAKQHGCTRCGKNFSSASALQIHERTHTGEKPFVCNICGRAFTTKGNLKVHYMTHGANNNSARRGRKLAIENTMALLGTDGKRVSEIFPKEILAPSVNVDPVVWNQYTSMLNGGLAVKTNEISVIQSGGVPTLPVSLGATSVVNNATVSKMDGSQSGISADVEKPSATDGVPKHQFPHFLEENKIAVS
Method: universal PBM
Molecule type: double-stranded DNA, one strand shown
Medium: in vitro
Tested at: 600 nM
Setting: 8-mer, flanks averaged, mean of replicates
Reading: higher = stronger binding
Sequence | E-score
ACTTAAAT | 0.274
GGGTAGAA | -0.0915
CCTTAAGA | 0.139
CCAACAAG | -0.121
ATGCCCTA | -0.0143
ATTGCACC | 0.0393
AATGTAGT | 0.144
AATTAATG | 0.336

Set 3
Target: ATF5, bZIP domain (human)
Method: DHFR protein complementation
Medium: yeast
Setting: single substitutions, most at no-binding floor
Baseline: wild-type JUN-FOS pair
Reading: higher = stronger binding
Starting sequence: JUN, bZIP domain (human); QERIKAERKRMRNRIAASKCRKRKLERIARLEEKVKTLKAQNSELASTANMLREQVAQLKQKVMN; partner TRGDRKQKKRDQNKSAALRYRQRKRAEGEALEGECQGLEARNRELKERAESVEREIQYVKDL
Substitution | binding fitness [natural log]
E32F | -1.5
E44F | -1.46
R30S | -1.38
L31S | -1.49
V56N | -1.39
N42A | -1.38
K34A | -1.5
R53Q | -1.44

Further values, each from its own experiment
Starting sequence: viral docking peptide; KGVKRKLFAEDSS; partner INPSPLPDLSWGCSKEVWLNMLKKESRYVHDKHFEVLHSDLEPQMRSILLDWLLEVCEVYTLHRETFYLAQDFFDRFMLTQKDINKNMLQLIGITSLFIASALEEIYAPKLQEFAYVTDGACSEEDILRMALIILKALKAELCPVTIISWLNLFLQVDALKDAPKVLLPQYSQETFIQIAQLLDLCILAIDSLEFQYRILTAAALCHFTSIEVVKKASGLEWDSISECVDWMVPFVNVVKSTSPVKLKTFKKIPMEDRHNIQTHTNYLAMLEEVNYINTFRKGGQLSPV
Substitution | target | assay | test system | conditions | scale | quantity | value
V3D | CCNE2, cyclin fold, Cln2 fusion (human) | yeast growth competition, sequencing | yeast | strong parent motif | baseline: not given, higher = stronger binding | normalised enrichment score | -0.246

Some of these lines once more (set 2):
Sequence | E-score
ATGCCCTA | -0.0143
AATGTAGT | 0.144
CCTTAAGA | 0.139
